Published values from different studies.
Lines come from different studies, so protocols differ. ± gives the spread as reported. Converted amounts (≈) assume the structure as drawn.

The IC50 of `CCCC[C@H]1C(=O)O[C@H](C)[C@H](NC(=O)c2cccc(NC=O)c2O)C(=O)O[C@@H](C)[C@@H]1OC(=O)CC(C)C` is reported as 0.02 µM (Wickerhamomyces anomalus; O2 uptake, inhibitor; mitochondria; together with: succinate 15 mM).
The ED50 of `COc1ccc(-c2[nH]c3nc(N)[nH]c(=O)c3c2C#N)cc1` is reported as 274 ± 7.5 µM (Trypanosoma brucei brucei; Alamar blue; Lister 427 bloodstream form; concentration not given, 10% fetal calf serum).
`C=CC1=C(C)/C(=C/C2=NC(=C\c3[nH]c(/C=C4\NC(=O)C(C)=C4C=C)c(C)c3CCC(=O)O)/C(CCC(=O)O)=C2C)NC1=O` — result for “lowest effective concentration”: 20 µM (hepatitis C virus; viral replication, RT-PCR; Huh7.5 full-length Con1 replicon; 48 h).
With `C=C1[C@H](CO)[C@@H](O)C[C@@H]1n1cnc2c(=O)[nH]c(N)nc21` the EC90 was 0.03 ± 0.002 µM (hepatitis B virus; viral replication; HepG2.2.15).
`CSc1ccc2c(c1)N(CCC1CCCCN1C)c1ccccc1S2` (stereo not drawn) has a pseudovirus entry of 0.39 ± 0.08 (coronavirus spike pseudovirus; luciferase reporter; ACE2-high cells; 20 µM, unit not given; reference: untreated).
With `CP(=O)(O)CCC(N)C(=O)O` (stereo not drawn) the herbicidal activity was 100% (Eleusine indica; 500 g/ha, 13 days, ELEIN, post-emergence spray; reference: untreated (0%), complete kill (100%)).
For `C/C=C/C=C/C(=O)N/N=C/c1ccccc1Cl`, the MIC was 50.1 µM (≈ 12.5 µg/mL) (Staphylococcus aureus, Bacillus subtilis, Escherichia coli; bacterial growth; 24 h).
For `N#Cc1ccc(-c2ccc(-c3ccco3)o2)c(F)c1`, the mutant frequency was 26% (Salmonella enterica; TA1535; 20 µM, 48 h, together with: sodium azide co-exposure; reference: sodium azide alone).
`CSc1ccc(OCc2ncc([N+](=O)[O-])n2C)cc1` gave a susceptibility ratio of > 15 fold (Leishmania donovani; macrophages, LdBOB nitroreductase-overexpressing amastigotes; reference: overexpressing over wild type).
`COc1cc(C=NN2C(S)=NCN2/C=C/c2ccccc2)ccc1O` gave an LC50 of 110 µg/mL (≈ 310 µM) (Aedes aegypti; third instar larvae).
`N=C(N)c1ccc(-c2ccc(-c3cccs3)o2)c(F)c1` has an inhibition of 105% (Salmonella enterica; sodium azide mutagenicity; TA1535; 20 µM, 48 h, together with: sodium azide 2 µg/plate co-exposure).
`COc1c(C[C@@H](C)OC(=O)Oc2ccc(O)cc2)c2c3c(C[C@@H](C)OC(=O)c4ccccc4)c(OC)c(=O)c4c(O)cc(OC)c(c5c(OC)cc(O)c(c1=O)c52)c43` has an effective concentration of 25 µg/mL (Aspergillus fumigatus; metabolic activity (XTT); 48 h, 37 °C, together with: colistin 20 µM).
The inhibition of `C[C@H](Cn1cnc2c(N)ncnc21)OCP(=O)(O)O` is reported as 100% (human alphaherpesvirus 2; virus production, plaque reduction; human monocytes/macrophages; 100 µg/mL, 6 days).
Under biofilm growth, `LSTFFRLFNGRRRRSVQWCA` is recorded as “decreased” (Streptococcus mutans; OD600; peptide, UA159, 4 h single-species biofilm; 128 µg/ml, 5 min exposure, OD600 read over 5 h).
The inhibition of `N=C(N)c1ccc(-c2ccc(-c3ccco3)o2)c(F)c1` is reported as 59% (Salmonella enterica; sodium azide mutagenicity; TA1535; 10 µM, 48 h, together with: sodium azide 2 µg/plate co-exposure).
With `Cc1cccc(C(=O)N/N=C/c2ccccc2)c1` the MIC was 52.5 µM (≈ 12.5 µg/mL) (Staphylococcus aureus, Bacillus subtilis, Escherichia coli; bacterial growth; 24 h).
`CCOC(=O)C1=C(C)NC(C)=C(C(=O)OC)C1c1cccc([N+](=O)[O-])c1` (stereo not drawn) — result for antiviral activity: “inactive” (human respiratory syncytial virus; BEAS-2B, A2-L19F-renilla; concentration not given).
The MIC of `CCCCCCCCCCCC(=O)N/N=C/c1ccccc1Cl` is reported as 28.2 µM (≈ 9.5 µg/mL) (Staphylococcus aureus, Bacillus subtilis, Escherichia coli; bacterial growth; 24 h).
The IC50 of `O=Cc1cn(Cc2cccc(Cl)c2)c2ccc([N+](=O)[O-])cc12` is reported as 14 µM (Leishmania major; parasite growth, resazurin; THP-1; 72 h, intracellular, amastigote).
With `COc1cc(OC)cc(C(=O)N/N=C/c2ccccc2Cl)c1` the MIC was 27.5 µM (≈ 8.78 µg/mL) (Aspergillus niger; microbial growth, broth dilution; 7 days).
`meglumine antimoniate` — result for “inhibition of infection”: 29% (Leishmania infantum; J774.2 macrophages; IC25, day 10; reference: untreated).
The LD50 of `CCc1c(C)nc(-n2nc(C)cc2NC(=O)c2ccccc2SC)[nH]c1=O` is reported as 650 ± 200 nM (Leishmania amazonensis; intracellular amastigotes; 72 h, washout).
With `N#Cc1ccc(-c2ccc(-c3cccs3)o2)c(F)c1` the inhibition was 86% (Salmonella enterica; sodium azide mutagenicity; TA1535; 10 µM, 48 h, together with: sodium azide 2 µg/plate co-exposure).
The pseudovirus entry of `CCN(CC)CCNC(=O)c1cc(S(C)(=O)=O)ccc1OC` is reported as 0.1 ± 0.01 (coronavirus spike pseudovirus; luciferase reporter; ACE2-high cells; 20 µM, unit not given; reference: untreated).
`NC(=S)NNC(=O)/C=C/c1ccc(N)cc1` has an LC50 of 190 µg/mL (≈ 804 µM) (Aedes aegypti; third instar larvae).
For `N#Cc1ccc(-c2ccc(-c3cccs3)s2)cc1F`, the mutant frequency was 16% (Salmonella enterica; TA1535; 20 µM, 48 h, together with: sodium azide after pre-exposure; reference: sodium azide alone).
For `CCN(CC)CCCC(C)Nc1ccnc2cc(Cl)ccc12` (stereo not drawn), the ED50 was 2.2 mg/kg/day (Plasmodium yoelii; Kenya MRA-428, mouse; oral).
`N=C(N)c1ccc(-c2ccc(-c3ccco3)o2)cc1F` gave a mutant frequency of 19% (Salmonella enterica; TA1535; 10 µM, 48 h, together with: sodium azide co-exposure; reference: sodium azide alone).
`O=C(O)C(Cl)Cl`: “decrease of intracellular amastigotes” 31.1% (Leishmania infantum; U-937 macrophages, infected; 273 µM, 48 h, highest non-cytotoxic concentration).
`C[C@@]1(O)[C@H](O)[C@@H](CO)O[C@H]1n1ccc(=O)[nH]c1=O` gave an EC90 of 55.3 µM (hepatitis C virus; viral replication, luciferase reporter; genotype 1b Con1 replicon; 72 h).
`c1ccc(CN2CCN3CCN(CC2)CCN(Cc2ccccc2)CC3)cc1` gave an IC90 of 22.3 µM (Leishmania donovani; parasite growth, resazurin; 72 h, amastigote).
`O=C(O)CNCP(=O)(O)O`: “degradation rate per cell” -1.4e-21 mol/s/cell (Achromobacter sp.; MPS 12 A; 3 mM).
`C=C1[C@H](CO)[C@@H](O)C[C@@H]1n1cnc2c(=O)[nH]c(N)nc21`: capsid assembly “no effect” (hepatitis B virus; native agarose gel; AML12HBV10; 1 µM, 2 days).
With `Cc1ccc(C(=O)N/N=C/c2ccccc2Cl)cc1` the MIC was < 25.1 µM (Aspergillus niger; tube dilution; 7 days, 25 °C).
`O=C1C=C(N(Cc2ccc(Cl)nc2)CC(F)F)CO1` has a resistance ratio of 3 (Bemisia tabaci; leaf-dip bioassay; biotype B; 72 h, adults; reference: LC50 over susceptible strain).
`N=C(N)c1ccc(-c2ccc(-c3cccs3)o2)cc1F` gave a mutant frequency of 15% (Salmonella enterica; TA1535; 20 µM, 48 h, together with: sodium azide co-exposure; reference: sodium azide alone).
`Cc1ccc(Cn2cc(C=O)c3cc([N+](=O)[O-])ccc32)cc1` gave an IC50 of > 85 µM (Trypanosoma brucei rhodesiense; trypomastigotes, IL1501).
`N#Cc1ccc(-c2ccc(-c3ccco3)o2)cc1F` has an inhibition of 97% (Salmonella enterica; sodium azide mutagenicity; TA1535; 20 µM, 48 h, together with: sodium azide 2 µg/plate co-exposure).
The IC90 of `c1ccc(CN2CCN3CCCN(CC2)CCN(Cc2ccccc2)CC3)cc1` is reported as > 25 µM (Leishmania donovani; parasite growth, resazurin; 72 h, amastigote).
